Published values from different studies.
Compare with care: the assays were run in different laboratories. ± gives the spread as reported.

For `Cc1cc2c(NC(=O)N[C@@H]3CC(C)(C)Oc4c(OC(F)(F)F)cccc43)cccc2cn1`, “body temperature change” read about -2 °C (telemetry; male Sprague-Dawley rats; dose not given).
`[2H]C([2H])([2H])C(c1cc2nnc(-c3cc(F)ccc3F)n2nc1OCc1ncnn1C)(C([2H])([2H])[2H])C([2H])([2H])[2H]` has a concentration of 1100 ng/mL (Wistar rat, plasma; oral, 30 mg/kg, 2 h).
For `Cn1cc(-c2ccnc(N)n2)c2ccccc21`, “remaining parent compound” read 127% (LC-MS; human liver microsomes; 3 µM, 60 min, together with: α-naphthoflavone 2 µM; reference: no inhibitor).
`CC(=O)[CH](C(C)=O)[Pt-2]1([S+](C)C)[O]C(C)=CC(C)=[O+]1` (stereo not shown) has an AST of 86.4 ± 6.5 U/L (rat, blood; intravenous, 10 mg/kg, single dose).
The tissue uptake of `OCc1cn(Cc2ccc(-c3noc(-c4ccc(OCC[18F])c(C(F)(F)F)c4)n3)cc2)nn1` is reported as 0.83 ± 0.07 %ID/g (female Lewis rat, thymus; intravenous, 30 min).
`N=C(N)NCCC[C@@H]1NC(=O)[C@H](Cc2c[nH]c3ccccc23)NC(=O)[C@@H](CC2CCCCC2)NC(=O)[C@@H]2CCCN2C(=O)[C@@H](NC(=O)CCc2ccccc2)CCCNC1=O` has an MRT(0-inf) of 1.34 h (C57BL/6J mouse, plasma spinal cord; intraperitoneal, 1 mg/kg single dose).
With `CC(=O)N[C@H](CCNC(=O)c1cc(NC(=O)c2cc(NC(=O)c3cc(NC(=O)c4nccn4C)cn3C)cn2C)cn1C)C(=O)Nc1cn(C)c(C(=O)Nc2cc(C(=O)Nc3cc(C(=O)Nc4cc(C(=O)NCCCN(C)CCCN[14C](=O)c5cccc([14C](=O)O)c5)n(C)c4)n(C)c3)n(C)c2)n1` the tissue concentration was 0.27 mg/kg (NSG male mice, LNCaP and A549 double xenograft, kidney; intraperitoneal, 20 nmol per animal, 24 h).
`CCCC[C@H](NC(=O)CNC(=O)CNC(=O)CN1CCN(CC(=O)O)CCN(CC(=O)O)CC1)C(=O)N[C@H]1CC(=O)NCCCC[C@@H](C(N)=O)NC(=O)[C@H](Cc2c[nH]c3ccccc23)NC(=O)[C@H](CCCNC(=N)N)NC(=O)[C@@H](Cc2ccccc2)NC(=O)[C@H](Cc2c[nH]cn2)NC1=O` [gallium-67 labelled]: “tumour to tissue ratio” 5.54 (female C57 mice, B16/F1 melanoma; intravenous, 0.037 MBq, 0.5 h; reference: tumour over lung).
For `CN(Cc1ccc(F)cc1)Cc1cc(=O)oc2cc(O)ccc12`, “remaining intact compound” read over 99% (HepG2 cell medium; 0.5 mM, 15 min).
`CC(C)[C@H](NC(=O)CNC(=O)[C@H](CCC(N)=O)NC(=O)[C@H](C)N)C(=O)O` has a clearance of 617 mL/min/kg (LC-MS/MS; human, male, plasma; intravenous, 10 mg/kg three times daily, day 3, first dose, 10 min infusion, geometric mean).
For `Cc1cc(O)c2c(c1)C(=O)c1cc(O)cc(O)c1C2=O.Cc1cc(O)c2c(c1)C(=O)c1cc(O)cc(O)c1C2=O.Cc1nc(C)c(C)nc1C`, the MRT(0-t) was 10.6 ± 1.82 h (Sprague Dawley rat, plasma; oral, 100 mg/kg).
With `COc1cc(C)c(Cc2ccc(O)cc2)cc1[C@@H]1S[C@H](CO)[C@@H](O)[C@H](O)[C@H]1O` the AUC(0-inf) was 306 ± 63.8 ng·h/mL (Japanese T2DM patients, plasma; 5 mg luseogliflozin, day 1, once daily).
`O=C(O)[C@@H]1C[C@@H](O)CN1C(=O)[C@@H]1CCCN1` has a log beta of 14.9 (potentiometric titration; 40 °C, MA complex, together with: Fe(III)).
`NC12CNCCNCC(NCc3ccc(CNC(=O)CCCC(=O)NCc4ccc(-c5nncnn5)cc4)cc3)(CNCCNC1)CNCCNC2.[64Cu+2]`: “mean absorbed dose” 0.0326 rad/mCi (OLINDA dosimetry; lungs; 48 h pretargeting interval, together with: huA33-TCO pretargeting).
With `CC[C@@H](C)[C@@H](NC(=O)[C@@H](C)NC(=O)[C@@H](CCCCN)NC(=O)[C@@H](CC(C)C)NC(=O)[C@@H](CC(C)C)NC(=O)[C@H](NC(=O)[C@@H](CCCCN)NC(=O)[C@@H](CC(C)C)NC(=O)[C@@H](C)NC(=O)[C@@H](CCCCN)NC(=O)[C@@H](CCCCN)NC(=O)[C@@H](CCCCN)NC(=O)[C@@H](C)NC(=O)[C@@H](CCCCN)NC(=O)[C@@H](CO)NC(=O)[C@@H](Cc1ccccc1)NC(=O)[C@H](NC(=O)[C@@H](CCCCN)NC(=O)[C@@H](CC(C)C)NC(=O)[C@@H](Cc1ccccc1)NC(=O)[C@@H](CO)NC(=O)[C@@H](CCCCN)NC(=O)[C@@H](Cc1c[nH]c2ccccc12)NC(=O)[C@@H](CCCCN)NC(C)=O)[C@H](C)O)[C@H](C)O)C(=O)N[C@H](CO)C(=O)N[C@H](CCCCN)C(N)=O` the self-association parameter was 5.13 (RP-HPLC temperature profiling; pH 2, 5-80 °C, unit not given; reference: control peptide).
Under “mouth ulceration incidence”, `Cn1c(=O)oc2ccc(-c3ccc(CC(C#N)NC(=O)C4CNCCCO4)c(F)c3)cc21` (stereo not shown) is recorded as 11.1% (human; oral, 20 mg once daily, treatment-related AE, multiple ascending dose).
`CC(=O)N[C@@H](CC(N)=O)C(=O)NCC(=O)N[C@@H](CCCNC(=N)N)C(=O)N[C@@H](C)C(N)=O`: “half-life of Asn form” 21.8 h (1H NMR; sodium phosphate buffer 50 mM; pH 7.4, 37 °C).
`COc1ccc(S(=O)(=O)N2CCc3ccccc3C2)cc1N1CCN(C(=O)c2ccc(F)cc2C(F)(F)F)CC1` has a concentration of 5.6 ng/g (rat, brain; intravenous, 10 mg/kg, 3 h, single dose).
`CC[C@H](C)[C@H](NC(=O)[C@H](Cc1ccccc1)NC(=O)[C@H](CC(=O)O)NC(=O)[C@@H]1CCCCNC(=O)NC[C@H](NC(=O)[C@H](CC(C)C)NC(=O)[C@H](CCCNC(=N)N)NC(=O)[C@H](CCSC)NC(=O)[C@H](C)N)C(=O)N[C@@H](CCCCN)C(=O)N[C@@H](Cc2ccccc2)C(=O)N[C@@H](Cc2ccccc2)C(=O)N1)C(=O)N[C@@H](CC(C)C)C(=O)N[C@@H](CCC(N)=O)C(=O)N[C@@H](CCCNC(=N)N)C(=O)N[C@@H](CCCCN)C(=O)N[C@@H](CCCCN)C(=O)O` has a helicity of 32.8% (circular dichroism; 20% TFE in PBS; 200 µM, pH 7.4, 25 °C).
The Cmax ratio of `CC(C)(Sc1cc[n+]([O-])cc1-c1ccc(C#N)c2ccccc12)C(=O)OC1OC(C(=O)O)C(O)C(O)C1O` (stereo not shown) is reported as 158% (adult men, plasma; oral, 15 mg verinurad, mild renal impairment; reference: impaired over normal renal function).
`COc1cc(NC(C)=O)c2c(c1O)-c1c(OC)c(OC)cc3c1C(C2)N(C)CC3` (stereo not shown) gave a remaining compound of 89.5 ± 2.2% (rat lung homogenate; 0.5 µg/mL, 40 d, -20 °C, long-term storage).
The Tmax of `CCCC(CCC(=O)O)NC(=O)c1ccc2c(c1)OCO2` (stereo not shown) is reported as 1.4 h (female Sprague-Dawley rat, plasma; oral, 200 mg/kg of parent drug).
`NC[C@@H](C(=O)Nc1ccc(-c2cn[nH]c2)cc1)c1ccccc1`: “peak plasma concentration” 3 ng/mL (New Zealand White rabbits, plasma; topical, 0.1 % one drop, 2 h).
With `CC(C)(Sc1ccncc1-c1ccc(C#N)c2ccccc12)C(=O)OC1OC(C(=O)O)C(O)C(O)C1O` (stereo not shown) the AUC(0-inf) increase was 15% (adult men, plasma; oral, 15 mg verinurad, mild renal impairment; reference: normal renal function).
With `O=C(C[c-]1cccc1)Oc1ccc(-n2cccc2)cc1.[Fe+2].c1cc[cH-]c1` the Epc was 431 mV (cyclic voltammetry; acetonitrile; reference: Ag/AgCl).
`CN1CCC[C@]1(C)/C=C/S(=O)(=O)NC(=O)Nc1c2c(cc3c1CCC3)CCC2`: “Cmax after first dose” 8100 ng/mL (human, plasma; oral, 50 mg twice daily, day 14, multiple ascending dose).
`CCc1c2c(nc3ccc(O)cc13)-c1cc3c(c(=O)n1C2)COC(=O)[C@]3(O)CC` has a Cmax of 652 ng/mL (human patients, plasma; intravenous, 177 mg/m^2 of parent drug).
For `CC[C@H](C)[C@@H]1NC(=O)[C@H](Cc2ccccc2)NC(=O)[C@@H](NC(=O)[C@H](CCCNC(=N)N)NC(=O)[C@H](Cc2ccccc2)NC(=O)[C@H](Cc2ccccc2)NC(=O)[C@H](CCCCN)NC(=O)[C@H](CO)NC(=O)[C@H](CC(C)C)NC(=O)[C@H](CCCNC(=N)N)NC(=O)[C@H](CCSC)NC(=O)[C@H](C)N)CCCNC(=O)NCC[C@@H](C(=O)N[C@@H](CCCNC(=N)N)C(=O)N[C@@H](CCCCN)C(=O)N[C@@H](CCCCN)C(=O)O)NC(=O)[C@H](CC(C)C)NC1=O`, the helicity was 12.6% (circular dichroism; 20% TFE in PBS; 200 µM, pH 7.4, 25 °C).
For `COc1ccc(/C=C/c2ccc(-c3ccc(C)cn3)nc2)cc1`, the fluorescence lifetime was 0.95 ns (TCSPC; MeOH).
For `CC[C@H](C)[C@H](NC(=O)[C@H](CCCCN)NC(=O)[C@@H](NC(=O)[C@H](CS)NC(=O)[C@H](CCCNC(=N)N)NC(=O)[C@H](CCCNC(=N)N)NC(=O)[C@H](CC(N)=O)NC(=O)[C@H](CCCNC(=N)N)NC(=O)[C@H](CCCNC(=N)N)NC(=O)[C@H](CS)NC(=O)[C@@H](NC(=O)[C@H](CO)NC(=O)[C@@H](NC(=O)[C@@H](NC(=O)[C@H](CS)NC(=O)[C@H](CCCCN)NC(=O)[C@@H](N)CCCNC(=N)N)C(C)C)[C@@H](C)CC)C(C)C)[C@@H](C)CC)C(=O)N[C@@H](CC(C)C)C(=O)N[C@@H](CS)C(=O)N[C@@H](CC(N)=O)C(=O)O`, the two-disulfide form was 41% (LC/MS; PBS; 0.1 mg/mL; reference: LC peak area).
The clearance of `CC(=O)N[C@H](CSSC[C@H](N)C(=O)O)C(=O)N[C@H](C)C(=O)N[C@H](CCCNC(=N)N)C(=O)N[C@H](CCCNC(=N)N)C(=O)N[C@H](CCCNC(=N)N)C(=O)N[C@H](C)C(=O)N[C@H](CCCNC(=N)N)C(N)=O` is reported as 114 mL/min (male human, plasma; intravenous, 2 mg, single dose, healthy volunteers).

Repeated from above:
For `Cc1cc2c(NC(=O)N[C@@H]3CC(C)(C)Oc4c(OC(F)(F)F)cccc43)cccc2cn1`, “body temperature change” read about -2 °C (telemetry; male Sprague-Dawley rats; dose not given).
`[2H]C([2H])([2H])C(c1cc2nnc(-c3cc(F)ccc3F)n2nc1OCc1ncnn1C)(C([2H])([2H])[2H])C([2H])([2H])[2H]` has a concentration of 1100 ng/mL (Wistar rat, plasma; oral, 30 mg/kg, 2 h).
